Assay results collected from several papers.
Each numbered part is a random draw from the data of one study; scales do not carry over between parts.

Sample 1
Target: RNA binding protein fox-1 homolog 2, RRM domain, GST-SBP tag (RBFOX2, Homo sapiens, UniProt O43251-10, residues 100-194)
Technique: RNA Bind-n-Seq
Molecule type: RNA
Medium: in vitro
Tested at: 365 nM
Setting: natural RNA segment, single round, ends assumed
Reference: no-protein control
Reading: higher = stronger binding
Quantity: RBNS enrichment (R)
Shared flanks, not repeated: GGGAGUUCUACAGUCCGACGAUC … UGGAAUUCUCGGGUGCCAA
Construct (chain): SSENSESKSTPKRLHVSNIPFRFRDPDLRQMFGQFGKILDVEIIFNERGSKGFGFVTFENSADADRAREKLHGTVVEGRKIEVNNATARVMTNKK
CAGUCCUUUAUCUGGAGGGAAAAGUCUGAUGCCAGCAGAGGUCCUGGGGCGCUGCUCUCCCAGGUCCUGGUCAGACUCAGCUCCAUAGCUCUUGGAGGCUUUCCCUGGAU: 0.719
CUAAUUGUGUUUGUCCGUCCAUGCCAUGAAUGAGUGGGCUGUAGUUGGGCCUAAAUAAAUGAGCUGUUGGAAGAAAAGAAUCACAGUACUUUCCAGCAGUCAGUCCCUGG: 0.623
UUUUCAAGCCAAGAACCAGUAGAAAACAGAAAUAAUGGUGCUCCCAAAUAUUCAGUACCUUGGGCAAUCCAGGAAGGGUUUAAAGAGACCUGUUGCUGCAUAGAACUCUC: 0.43
AGGACAACAGCAAGAUGAGCCUGUGCAUGAAGAACUCACGGGGCACUUCCCCACAAUGCUGCAUUACCGAUAGGACCUAGUGUUUACUACAGUGUAAAUGUUUAUAUGGA: 10.5
CUUGGAGAAUCUGUUUUCAAUCUCCACUGAUUGCCCCCUUGCUGGCCAGCCCAGGGGCCUUUACCAUGUUCUCUCCACAUCCGUAAAUAAACUUCCUUCACUACACUGUA: 0.334
UGCGGCUGGAGGAUCCUGAGGACAGGAGAGGGGCUUCGGCUGACCAGCCAUAGCACUUACCCAUAGAGACCGCUAGGGUUGGCCGUGCUGUGGUGGGGGAUGGAGGCCUG: 0.365
AAAUAAGAGCUAUACUUACCAGAGUCAAUAGAUCACUGGCUUCUCUUUGCUGUCAAAAGCUACAUUGCACCCACAUGUCUGGAGUUCACACCACAAAUCUGCAGUUCAUU: 0.496
UGUAAUUUUAGAUCGGGAAGAGAGUGUGUGUCUAAUUCUUUUGAGUAUGCCUGUGCCAUCAGAGAAGAGAUCCCACCCCAGUAGGAAGGUAUGGGGCAGUCCAGUUUAUA: 1.75
AUUCCUGUUGUGUUAUUUUUCUUAACUGGAGUGUGUGCUGCCUUUCAGGUACAAUUUUUGUGUAAUAAAAGCCAGUGCAUUAAGUUUAUAUAGACUACUUUCUAUGCAAG: 0.307
UGAGGUGUCCAGAGGCGGCGGCAGCUGGCAGUGCCCUCAGCCCCCAAGUGUCCAGCCUGGCACUUCCCAUUCAGGCCACCUGCUUUGGGUCAACAGUUCCUUUGCCAGCA: 0.382
AAUCUGAAUUAGUCCUGUUUUGGUGGAGUUUGUACAUUUUAAAUCCUAUAACAAAAAUAAUCUAGUUUUCAUUUCCUUACUAGCUAGAUGCGAAUUUGUCUUUUUGAAUG: 0.476
AGGAUCAGUCGUGGGCAGGACUCACAUACCUCAGCUCUGGAGGAGCUAGCACUGUCUGGAAUGGCCUGUGUUGUAAGUGUCUUGGCCUCUAGGGAAGGUUUGUGCUGGCC: 4.77

Sample 2
Target: Cln2 (Saccharomyces cerevisiae)
Observed: peptide binding
Technique: competitive growth sequencing
Molecule type: peptide
Organism: Saccharomyces cerevisiae
Strain: unfused Cln2 strain
Setting: peptide tiling library
Reading: direction not given
Quantity: enrichment score
ESSTVSEEDYFSSHRD: 0.672
CFRCLLFSFSGRSGVE: -0.745
LAKRALKYTD: -0.817
KSKHEEEEWTDDDLVE: 1.08
PLRKAKRARLCSSSSS: 1.29
AGSAKRRLFGEDPPKE: -0.577
MNQELLSVGSKRRRTG: 1.06
ISRLFPPRTPGWHQLQ: -2.19
SPREGHMMDALYAQVK: -0.406
PFSENVSAVQKLDFSD: 0.847
RSLKLDGLLEEN: -0.43
IQKKLRFEDTLEFVGF: -1.09
KPITLDTTDFQESFVT: 0.525
RDLFDCDFGDLTPLDF: 1.34
VLLKRLQDVVSERANH: -1.42
SDSTVTKLDFDLEP: 0.78
ALLRRLQDVANDRGSH: -0.742
TSPGPVLLHPSPSTTQ: 0.355
TRRRLFVENDSP: -0.175
KDDDKAWEYEERDRRS: 0.0711
GQLVIPLDELTLDTSF: 1.37
RVSGLLSWTLSRVLWL: -0.707
LKGRRLVFDN: -0.298
KRRLDLETDHQY: -0.209
QDYERRLLRQIVIQNE: -0.408

Sample 3
Target: Histone acetyltransferase KAT6A, winged helix 1, GST fusion (KAT6A, Homo sapiens, UniProt Q92794, residues 1-85)
Technique: protein binding microarray
Molecule type: double-stranded DNA, one strand shown
Medium: in vitro
Tested at: not given
Setting: 8-mer, flanks averaged, mean of 2 arrays, mostly near background
Reference: not given
Reading: higher = stronger binding
Quantity: E-score
Residues (chain): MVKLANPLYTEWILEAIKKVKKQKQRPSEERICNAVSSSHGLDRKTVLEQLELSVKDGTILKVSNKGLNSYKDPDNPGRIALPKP
AAAGTCGT: -0.0717
CTGGAGGC: -0.0322
AGTCGACT: -0.0847
TGTTTTAA: -0.129
CGATTCCA: -0.113
CTTTTGAA: -0.0905
CTTTTTAA: -0.151
ATCTAAAT: -0.128
CGGTATAG: 0.226
CACATTGC: 0.0859
ACCGCCGT: 0.435
AGAGGCAA: -0.323
ATGGAGAC: -0.189
CATATATC: -0.0911
ATATTTTG: -0.203
GCTTTGAC: 0.018
CGGTCTAG: 0.0525

Sample 4
Target: Prothrombin, mature alpha-thrombin (F2, Homo sapiens, UniProt P00734)
Technique: aptamer microarray, sandwich
Molecule type: DNA with 2'F-ANA
Medium: in vitro
Tested at: 200 nM
Setting: whole 15-mer aptamer, many near background
Added: Cy3 exosite-II aptamer, 400 nM
Reading: higher = stronger binding
Quantity: mean fluorescence intensity
Oligonucleotide: GGTTGGTGTGGTTGG
2'F-ANA at 2 4 6 7 8 9 11 12 13 15: 247 a.u.
2'F-ANA at 2 4 5 10 11 12 14: 45.9 a.u.
2'F-ANA at 1 4 6 10 12: 57.5 a.u.
2'F-ANA at 4 5 8 10 14: 41.9 a.u.
2'F-ANA at 1 3 7 8 9 10 11 12 14 15: 62.8 a.u.
2'F-ANA at 1 2 4 5 11 12 13: 68.6 a.u.
2'F-ANA at 7 9 10 11 13 14: 108 a.u.
2'F-ANA at 5 7 8 9 10 11 12: 54.8 a.u.
2'F-ANA at 1 2 4 5 7 8 9 11 12 13 15: 66.3 a.u.
2'F-ANA at 2 3 4 5 8 9 10 12 14 15: 421 a.u.
2'F-ANA at 1 2 3 4 5 6 7 9 10 12 13 14: 46.1 a.u.
2'F-ANA at 1 2 3 6 8 10 12 15: 88 a.u.
2'F-ANA at 1 2 5 9 10 12 13 14 15: 45.9 a.u.
2'F-ANA at 2 3 4 5 7 11 12 14 15: 53.3 a.u.
2'F-ANA at 1 2 3 4 5 6 9 11 12 14 15: 70.3 a.u.
2'F-ANA at 8 10 11 13 15: 131 a.u.
2'F-ANA at 2 4 5 7 9 11 13 14 15: 45.4 a.u.
2'F-ANA at 1 2 3 6 14: 70.4 a.u.
2'F-ANA at 1 2 3 4 5 6 9 12 13 14: 103 a.u.
2'F-ANA at 4 5 6: 83.7 a.u.
2'F-ANA at 2 6 7 8 9 10 12 15: 161 a.u.
2'F-ANA at 1 2 5 7 8 9 11 13 14: 44.8 a.u.
2'F-ANA at 1 7 12 14: 73.4 a.u.
2'F-ANA at 1 6 7 9 13 14: 55.6 a.u.
2'F-ANA at 1 2 4 6 7 8 9 11 14: 67.5 a.u.

Sample 5
Target: Interferon regulatory factor 7, full length, phosphomimetic (IRF7, Homo sapiens, UniProt Q92985, residues 1-503, S471D/S472D/S475D/S476D/S477D/S483D/S484D/S487D)
Technique: protein-binding microarray
Molecule type: double-stranded DNA, one strand shown
Medium: in vitro
Tested at: 2200 nM top
Setting: 60-bp whole probe
Added: salmon DNA 0.4 mg/ml
Reference: random background probes
Reading: higher = stronger binding
Quantity: fitted relative affinity
Shared flanks, not repeated: GCCTAGCAC … GTCTTGATTCGCTTGACGCTGCTG
Residues (chain): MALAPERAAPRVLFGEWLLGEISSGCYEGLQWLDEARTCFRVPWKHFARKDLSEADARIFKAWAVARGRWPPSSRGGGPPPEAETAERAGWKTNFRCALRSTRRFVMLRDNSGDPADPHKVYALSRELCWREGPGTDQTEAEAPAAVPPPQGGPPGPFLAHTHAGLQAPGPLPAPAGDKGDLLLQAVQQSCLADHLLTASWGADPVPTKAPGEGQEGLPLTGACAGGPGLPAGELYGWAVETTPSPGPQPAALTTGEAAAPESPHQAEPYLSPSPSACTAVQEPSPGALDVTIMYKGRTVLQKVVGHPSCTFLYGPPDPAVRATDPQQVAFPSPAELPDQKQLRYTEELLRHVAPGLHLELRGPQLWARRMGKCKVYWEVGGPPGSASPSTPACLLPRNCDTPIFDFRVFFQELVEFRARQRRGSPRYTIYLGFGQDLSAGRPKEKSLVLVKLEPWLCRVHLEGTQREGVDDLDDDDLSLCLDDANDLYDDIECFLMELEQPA
GTCGGTATCGGTATCGGGACGTGCTAG: 0.971 z-score
TTAGGGCTGGGGTATCGGTTAGTGCTA: -0.798 z-score
GACGGGTTCCTTTTCCTGACGTGCTAG: 1.65 z-score
TCATTTCTTTTTTTCTTACTGTGCTAG: 3.52 z-score
GACGGTCTTCTTCTCCTGACGTGCTAG: 1.14 z-score
TCAGATTTCCATTATTGACTGTGCTAG: 1.46 z-score
TTAGATCGCAGTCTCGATTAGTGCTAG: 0.218 z-score
TTAAGTTTCGACTATCGGTTAGTGCTA: 4.63 z-score
GAAGATTTCGGGTTTCGAGACGTGCTA: 5.06 z-score
GACTGTCTCGGACTGGGGACGTGCTAG: -0.257 z-score
TTTATTTTCTGAATGCCCTCGTGCTAG: 4.18 z-score
AAGCTTCTTTTTTATTCTAAAGTGCTA: 0.0925 z-score
TTAGTTATCCTTCTCCTTTAGTGCTAG: 1.72 z-score
GACGAACTGGACTTTCGGGACGTGCTA: 2.42 z-score
GACGGTTTCGGACTGGTGACGTGCTAG: 4.16 z-score
TTAGGTATCCTTCTCCCTTAGTGCTAG: 1.21 z-score
TTAGATATCAGTTTGGATTAGTGCTAG: 0.24 z-score
GACGGACTGCGTCTCCTGACGTGCTAG: 0.0848 z-score
TTAGGTATCGGGTATCGTTTAGTGCTA: 0.639 z-score
